Published values from different studies.
Each line is one published result; not all experiments were run side by side. “And” joins repeats or separate records; there may be more than shown. ± gives the spread as reported.
SRC SH3-SH2-kinase domain: Proto-oncogene tyrosine-protein kinase Src, SH3-SH2-kinase domain (SRC, Gallus gallus, UniProt P00523)
ABL1: Tyrosine-protein kinase ABL1 (ABL1, Homo sapiens, UniProt P00519)
Sequence of UniProt Q9BYW2 (whole entry, looked up): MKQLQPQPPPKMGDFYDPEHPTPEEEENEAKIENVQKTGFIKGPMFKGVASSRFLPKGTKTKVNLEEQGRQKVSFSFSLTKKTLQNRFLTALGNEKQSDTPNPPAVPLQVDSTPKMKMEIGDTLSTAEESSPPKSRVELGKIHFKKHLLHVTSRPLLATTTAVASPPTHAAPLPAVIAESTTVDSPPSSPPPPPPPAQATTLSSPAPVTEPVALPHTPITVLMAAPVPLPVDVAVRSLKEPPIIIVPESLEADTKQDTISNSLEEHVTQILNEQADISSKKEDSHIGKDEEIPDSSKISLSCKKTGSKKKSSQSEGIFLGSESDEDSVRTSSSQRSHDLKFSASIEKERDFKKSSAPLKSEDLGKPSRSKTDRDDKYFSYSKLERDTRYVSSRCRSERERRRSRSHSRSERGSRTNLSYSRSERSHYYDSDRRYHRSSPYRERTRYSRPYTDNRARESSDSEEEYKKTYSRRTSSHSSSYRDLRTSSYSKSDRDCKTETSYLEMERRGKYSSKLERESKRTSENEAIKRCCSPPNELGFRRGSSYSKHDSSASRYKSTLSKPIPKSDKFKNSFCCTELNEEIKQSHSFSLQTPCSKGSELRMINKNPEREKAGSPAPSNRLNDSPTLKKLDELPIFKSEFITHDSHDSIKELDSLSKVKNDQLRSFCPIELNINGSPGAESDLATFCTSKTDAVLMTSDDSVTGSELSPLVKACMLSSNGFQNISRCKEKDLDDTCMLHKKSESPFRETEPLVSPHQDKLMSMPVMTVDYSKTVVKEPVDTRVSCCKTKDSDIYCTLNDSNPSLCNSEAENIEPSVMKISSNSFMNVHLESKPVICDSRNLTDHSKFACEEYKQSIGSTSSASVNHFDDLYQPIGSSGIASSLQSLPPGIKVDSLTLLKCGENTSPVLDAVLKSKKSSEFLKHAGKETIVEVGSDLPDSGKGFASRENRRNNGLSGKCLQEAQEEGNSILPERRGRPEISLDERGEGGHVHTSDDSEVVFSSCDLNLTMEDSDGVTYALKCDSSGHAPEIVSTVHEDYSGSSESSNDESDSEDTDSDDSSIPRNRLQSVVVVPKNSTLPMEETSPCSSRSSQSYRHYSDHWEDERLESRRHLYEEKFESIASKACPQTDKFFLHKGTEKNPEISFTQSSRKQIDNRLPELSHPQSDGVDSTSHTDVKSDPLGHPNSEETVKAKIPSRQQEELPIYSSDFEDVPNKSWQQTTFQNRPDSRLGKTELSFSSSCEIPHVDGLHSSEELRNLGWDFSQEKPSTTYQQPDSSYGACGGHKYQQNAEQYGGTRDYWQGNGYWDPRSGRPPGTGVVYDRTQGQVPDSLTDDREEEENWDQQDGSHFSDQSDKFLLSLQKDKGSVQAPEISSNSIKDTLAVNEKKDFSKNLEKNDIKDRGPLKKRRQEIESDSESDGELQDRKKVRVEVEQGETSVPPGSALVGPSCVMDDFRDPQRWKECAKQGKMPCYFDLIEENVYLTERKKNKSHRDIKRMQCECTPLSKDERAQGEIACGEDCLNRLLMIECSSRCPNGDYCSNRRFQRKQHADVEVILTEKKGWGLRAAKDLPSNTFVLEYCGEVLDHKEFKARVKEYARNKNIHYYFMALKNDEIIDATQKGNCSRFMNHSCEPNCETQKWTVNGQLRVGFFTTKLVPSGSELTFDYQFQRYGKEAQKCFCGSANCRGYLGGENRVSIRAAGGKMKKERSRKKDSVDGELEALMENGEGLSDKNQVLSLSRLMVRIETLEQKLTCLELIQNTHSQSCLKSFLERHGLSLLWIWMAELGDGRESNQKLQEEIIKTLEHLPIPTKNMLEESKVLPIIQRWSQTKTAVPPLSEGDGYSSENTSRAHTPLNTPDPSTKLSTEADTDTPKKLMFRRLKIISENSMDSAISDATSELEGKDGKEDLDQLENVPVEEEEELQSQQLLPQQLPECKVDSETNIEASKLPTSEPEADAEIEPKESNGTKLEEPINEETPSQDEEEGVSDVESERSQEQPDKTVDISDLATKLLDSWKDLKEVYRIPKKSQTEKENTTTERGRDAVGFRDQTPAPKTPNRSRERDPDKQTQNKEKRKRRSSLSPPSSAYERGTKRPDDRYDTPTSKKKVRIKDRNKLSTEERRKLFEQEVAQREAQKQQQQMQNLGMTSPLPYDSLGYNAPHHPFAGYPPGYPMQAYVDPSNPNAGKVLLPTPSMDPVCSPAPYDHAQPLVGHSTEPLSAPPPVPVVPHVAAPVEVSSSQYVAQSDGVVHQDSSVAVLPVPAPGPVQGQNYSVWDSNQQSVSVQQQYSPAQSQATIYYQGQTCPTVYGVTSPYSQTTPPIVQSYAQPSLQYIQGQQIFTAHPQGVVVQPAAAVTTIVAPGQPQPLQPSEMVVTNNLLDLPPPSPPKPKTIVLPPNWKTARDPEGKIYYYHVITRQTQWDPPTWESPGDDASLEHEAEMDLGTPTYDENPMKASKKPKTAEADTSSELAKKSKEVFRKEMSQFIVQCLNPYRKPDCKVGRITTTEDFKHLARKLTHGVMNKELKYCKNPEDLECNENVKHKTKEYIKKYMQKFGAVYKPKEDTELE
Sequence of UniProt P00519 (whole entry, looked up): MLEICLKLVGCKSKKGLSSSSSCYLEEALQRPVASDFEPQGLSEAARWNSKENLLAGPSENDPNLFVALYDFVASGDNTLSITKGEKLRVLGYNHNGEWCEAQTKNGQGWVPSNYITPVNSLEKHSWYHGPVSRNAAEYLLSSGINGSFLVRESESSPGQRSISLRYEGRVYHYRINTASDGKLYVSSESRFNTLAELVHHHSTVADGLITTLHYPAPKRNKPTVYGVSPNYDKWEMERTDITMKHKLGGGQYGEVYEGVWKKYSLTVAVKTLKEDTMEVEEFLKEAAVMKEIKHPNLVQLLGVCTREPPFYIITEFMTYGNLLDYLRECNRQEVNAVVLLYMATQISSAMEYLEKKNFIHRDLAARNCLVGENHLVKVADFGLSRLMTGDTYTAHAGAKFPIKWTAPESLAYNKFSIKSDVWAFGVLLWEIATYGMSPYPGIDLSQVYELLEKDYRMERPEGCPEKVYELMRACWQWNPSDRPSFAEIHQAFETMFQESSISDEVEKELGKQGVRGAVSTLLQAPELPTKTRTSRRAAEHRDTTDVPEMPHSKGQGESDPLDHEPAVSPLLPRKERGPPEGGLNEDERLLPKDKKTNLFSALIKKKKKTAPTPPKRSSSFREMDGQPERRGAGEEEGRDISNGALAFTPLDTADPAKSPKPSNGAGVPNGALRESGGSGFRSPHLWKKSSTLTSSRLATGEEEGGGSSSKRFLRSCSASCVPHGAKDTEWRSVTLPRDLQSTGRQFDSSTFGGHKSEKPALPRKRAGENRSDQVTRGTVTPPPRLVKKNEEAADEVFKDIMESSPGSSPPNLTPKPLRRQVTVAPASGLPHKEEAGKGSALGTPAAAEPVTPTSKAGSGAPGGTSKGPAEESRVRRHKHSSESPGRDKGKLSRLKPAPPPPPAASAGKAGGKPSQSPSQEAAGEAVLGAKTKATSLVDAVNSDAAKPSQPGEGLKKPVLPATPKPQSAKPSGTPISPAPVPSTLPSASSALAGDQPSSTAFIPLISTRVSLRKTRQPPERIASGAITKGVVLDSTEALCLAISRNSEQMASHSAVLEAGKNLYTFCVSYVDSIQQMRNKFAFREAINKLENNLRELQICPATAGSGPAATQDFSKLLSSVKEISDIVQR
Sequence of UniProt P08069 (whole entry, looked up): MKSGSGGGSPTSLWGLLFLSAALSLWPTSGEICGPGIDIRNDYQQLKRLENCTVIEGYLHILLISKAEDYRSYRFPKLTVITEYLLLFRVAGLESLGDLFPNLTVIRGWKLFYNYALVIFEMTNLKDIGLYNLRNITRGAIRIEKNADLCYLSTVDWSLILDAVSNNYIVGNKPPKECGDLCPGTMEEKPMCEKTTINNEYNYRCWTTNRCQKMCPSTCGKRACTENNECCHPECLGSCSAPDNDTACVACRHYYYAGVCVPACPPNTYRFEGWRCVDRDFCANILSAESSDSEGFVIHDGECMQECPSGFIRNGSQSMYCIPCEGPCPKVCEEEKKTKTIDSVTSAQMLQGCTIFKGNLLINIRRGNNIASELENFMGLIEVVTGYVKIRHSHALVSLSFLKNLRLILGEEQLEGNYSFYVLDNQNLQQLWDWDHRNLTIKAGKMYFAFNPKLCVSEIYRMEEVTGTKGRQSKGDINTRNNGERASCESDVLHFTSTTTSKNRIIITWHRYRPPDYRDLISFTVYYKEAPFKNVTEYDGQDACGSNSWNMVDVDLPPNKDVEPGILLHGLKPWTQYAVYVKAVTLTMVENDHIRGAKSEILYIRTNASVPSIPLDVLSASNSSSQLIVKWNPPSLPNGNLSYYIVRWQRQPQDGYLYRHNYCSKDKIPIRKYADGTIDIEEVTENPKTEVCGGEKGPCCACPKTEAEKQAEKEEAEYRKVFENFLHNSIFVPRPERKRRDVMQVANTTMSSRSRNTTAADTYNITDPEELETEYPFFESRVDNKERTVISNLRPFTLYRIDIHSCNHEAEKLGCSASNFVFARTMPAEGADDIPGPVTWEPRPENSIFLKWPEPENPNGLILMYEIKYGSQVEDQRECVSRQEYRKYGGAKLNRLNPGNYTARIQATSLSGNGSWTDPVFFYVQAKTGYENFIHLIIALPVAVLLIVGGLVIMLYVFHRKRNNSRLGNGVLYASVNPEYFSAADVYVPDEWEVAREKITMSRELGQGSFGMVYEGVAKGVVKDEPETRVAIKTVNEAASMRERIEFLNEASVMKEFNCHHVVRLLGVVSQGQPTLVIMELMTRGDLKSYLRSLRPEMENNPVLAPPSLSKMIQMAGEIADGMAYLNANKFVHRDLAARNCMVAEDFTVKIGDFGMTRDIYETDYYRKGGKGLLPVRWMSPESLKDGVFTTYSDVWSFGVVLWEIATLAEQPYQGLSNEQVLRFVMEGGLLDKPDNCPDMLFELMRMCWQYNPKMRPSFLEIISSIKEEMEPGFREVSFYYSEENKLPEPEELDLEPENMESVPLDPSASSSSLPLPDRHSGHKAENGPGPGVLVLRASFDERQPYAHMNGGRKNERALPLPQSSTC

Structure (SMILES)	target	assay	test system	conditions	IC50
Cc1cccc2cc(C(=O)N[C@H]3CC[C@H](N)CC3)[nH]c12	Histone-lysine N-methyltransferase SETD2, SET domain (SETD2, Homo sapiens, UniProt Q9BYW2)	inhibitor			166 µM
C=CCn1c(NN)nc2cc3ccccc3cc2c1=O	Genome polyprotein, protease (Hepatitis C virus genotype 1b, UniProt O92972)	enzyme activity, inhibitor, FRET			16 µM
O=C(O)[C@H](Cc1c[nH]c2ccccc12)N1C(=O)c2ccccc2C1=O	DNA (cytosine-5)-methyltransferase 1 (DNMT1, Homo sapiens, UniProt P26358)	methyltransferase activity, inhibitor		up to 400 µM, added: SAM 0.5 µM, hemimethylated DNA 2 µM	no inhibition
O=C(CN1CCOc2ccccc2C1)c1ccc2[nH]c(=O)[nH]c2c1	DNA dC->dU-editing enzyme APOBEC-3G (APOBEC3G, Homo sapiens, UniProt Q9HC16)	enzyme activity, inhibitor		pH 6	740 µM
Cc1ccc(S(=O)(=O)N(Cc2csc(-c3ccccc3)n2)c2ccccc2)cc1	Trypanothione synthetase (Trypanosoma brucei, UniProt Q586P2)	enzyme activity, inhibitor			> 100 µM
C=CC(=O)N1CCN(c2nc(OC[C@@H]3CCCN3C)nc3c2CCN(c2cccc4cccc(C)c24)C3)C[C@@H]1CC#N	GTPase KRas (KRAS, Homo sapiens, UniProt P01116)	target engagement in cells, BRET			~0.6 µM
CC(C)(C)COCCCCCN1C[C@H](O)[C@@H](O)[C@H](O)[C@@H]1CO	Ceramide glucosyltransferase (Ugcg, Mus musculus, UniProt O88693)	enzyme activity in cells, inhibitor, fluorescence			2.77 µM
CC(C)NCc1ccc(C[C@@H]2NC(=O)[C@@H](Cc3c[nH]c4ccccc34)NC(=O)[C@H](Cc3ccccc3)NC(=O)[C@H](NC(=O)[C@@H](N)Cc3ccc(Cl)cc3)CSSC[C@@H](C(=O)N[C@@H](Cc3ccc4ccccc4c3)C(N)=O)NC(=O)[C@H](Cc3ccc(O)c(I)c3)NC2=O)cc1	Somatostatin receptor type 5 (SSTR5, Homo sapiens, UniProt P35346)	ligand displacement, radioligand		cell membranes	> 1 µM
C[C@@H](Oc1cncc(-c2cnc(N)nc2)c1)c1c(Cl)ccc(F)c1Cl	Phosphatidylinositol 3,4,5-trisphosphate 5-phosphatase 1, Ptase-C2 domains (INPP5D, Homo sapiens, UniProt Q92835)	enzyme activity, inhibitor			79.4 µM
CCOc1ccccc1-c1nc(CC(=O)N2CCc3sccc3C2)cs1	Trypanothione synthetase (Trypanosoma brucei brucei, UniProt Q586P2)	enzyme activity, BIOMOL Green phosphate release		1 h preincubation	8 µM and 8.4 µM
CN1C(=O)[C@H](CC2CCCCC2)NC(=O)/C=C\C(=O)N[C@H](C(=O)O)CCNC(=O)[C@H](CCCNC(=O)c2cnccn2)NC(=O)[C@@H]1Cc1ccc(F)cc1	SRC SH3-SH2-kinase domain	enzyme activity, inhibitor, Z'-LYTE FRET		Src residues 83-533, added: 50 µM ATP	> 5 µM
CC[C@H](C)[C@H](NC(=O)[C@H](CC(C)C)NC(=O)c1ccc(N)nc1)C(=O)NCC(=O)N[C@@H](CCCN=C(N)N)C(=O)N[C@@H](CC(C)C)C(N)=O	Proteinase-activated receptor 2 (F2RL1, Homo sapiens, UniProt P55085)	ligand displacement			18.5 µM
O=C(O)c1cc(S(=O)(=O)Nc2c(F)cccc2F)ccc1O	DNA repair protein RAD52 homolog, with RPA and ssDNA (RAD52, Homo sapiens, UniProt P43351)	inhibitor, FRET			28.9 ± 5.5 µM
COc1ccc2nc3cc(Cl)ccc3c(NCCCCc3c(N)nc(N)nc3N)c2c1	Muscleblind-like protein 1, with (CUG)12 RNA (Homo sapiens, UniProt Q9NR56)	MBNL1-RNA binding, gel mobility shift		no tRNA, added: (CUG)12 RNA, 1000 nM MBNL1	37 ± 11 µM
COc1ccc(C(=O)Nc2n[nH]c3ccc(NC(=O)C(CCN)c4cccc(Cl)c4)cc23)cc1 (centres unmarked)	Proto-oncogene tyrosine-protein kinase Src, autophosphorylated (SRC, Gallus gallus, UniProt P00523, Y527F)	photo-crosslinking probe binding, competition with HT-1	mammalian cell lysate	activated kinase	0.27 ± 0.05 µM
N=C(N)NCCC[C@@H]1NC(=O)[C@H](Cc2c[nH]c3ccccc23)NC(=O)[C@H](CCCNC(=N)N)NC(=O)[C@H](Cc2c[nH]c3ccccc23)NC(=O)[C@H](CCCNC(=N)N)NC(=O)[C@H](Cc2c[nH]c3ccccc23)NC(=O)[C@H](CCCNC(=N)N)NC(=O)[C@H](Cc2c[nH]c3ccccc23)NC(=O)[C@H](CCCNC(=N)N)NC(=O)[C@H](Cc2c[nH]c3ccccc23)NC(=O)[C@H](CCCNC(=N)N)NC(=O)[C@H](Cc2c[nH]c3ccccc23)NC(=O)[C@H](CCCNC(=N)N)NC(=O)[C@H](Cc2c[nH]c3ccccc23)NC1=O	ABL1	enzyme activity, inhibitor, radiometric			0.35 µM

Structure (SMILES)	target	assay	test system	conditions	IC50
Cc1ccc2nc(-c3ccc4nc(-c5ccc6nc(-c7ccc(N)cc7)sc6c5)sc4c3)sc2c1S(=O)(=O)O	Genome polyprotein, NS3 helicase domain (Hepatitis C virus genotype 1b, UniProt Q9WMX2)	helicase activity, inhibitor, MBHA			0.9 ± 0.1 µM
Cc1ccccc1-c1noc(CNS(=O)(=O)c2ccccc2)n1	Trypanothione synthetase (Trypanosoma brucei, UniProt Q586P2)	enzyme activity, inhibitor			15 µM
O=C1/C=C\C(=O)N[C@@H](CC2CCCCC2)C(=O)N[C@@H](Cc2ccccc2)C(=O)N[C@@H](CCCNC(=O)c2cnccn2)C(=O)NCC[C@@H](C(=O)O)N1	SRC SH3-SH2-kinase domain	enzyme activity, inhibitor, Z'-LYTE FRET		Src residues 83-533, added: 50 µM ATP	≤ 0.004 µM
Oc1c(C(Nc2nc3ccccc3s2)c2cccc(OCc3ccccc3)c2)ccc2cccnc12 (centres unmarked)	Genome polyprotein, NS2B-NS3 protease (Dengue virus type 2, UniProt P14340)	enzyme activity, inhibitor		0.1% CHAPS, added: Bz-Nle-Lys-Arg-Arg-AMC substrate	≤ 1 µM and 0.91 µM
N=C(N)NCCS(=O)(=O)O	Sodium- and chloride-dependent taurine transporter (SLC6A6, Homo sapiens, UniProt P31641)	transporter uptake, inhibitor, radiometric			16.8 µM
N#Cc1c(-c2cccs2)cc(-c2cccs2)nc1SCc1ccc(C(=O)O)cc1	Histone acetyltransferase KAT2A (KAT2A, Homo sapiens, UniProt Q92830)	enzyme activity, inhibitor, radiometric			12.7 µM
CCN(CC)CCCC[C@H](NC(=O)[C@@H](NC(=O)[C@H](C)NC(=O)[C@H](Cc1ccccc1)NC(=O)c1ccc(C(F)(F)F)cc1)C1CCCC1)C(=O)N[C@@H](CO)C(N)=O	Chromobox protein homolog 8 (Homo sapiens, UniProt Q9HC52)	binding, inhibitor, competitive fluorescence polarization		pH 8.0	12 ± 2 µM
CN(C)C/C=C/C(=O)Nc1ccc2nc(NCCCCCN(C)C)nc(NCCCCCCN(C)C)c2c1	Histone-lysine N-methyltransferase SETD2 (SETD2, Homo sapiens, UniProt Q9BYW2)	enzyme activity, inhibitor, radiometric			0.8 µM
CCNC1=C(Cl)C(=O)c2cc3c(cc2C1=O)CCCC3(C)C	DNA topoisomerase IB (Leishmania donovani, UniProt A0A3Q8IHS4+Q8WQM6)	DNA relaxation activity, inhibitor		added: supercoiled plasmid DNA	> 100 µM
Cc1ccccc1-c1cc(N2CCN(CCCN3C(=O)C=CC3=O)CC2)ccc1N(C)C(=O)C(C)(C)c1cc(C(F)(F)F)cc(C(F)(F)F)c1	Substance-P receptor (TACR1, Homo sapiens, UniProt P25103)	nuclear ERK activity, antagonist, FRET biosensor	HEK293T	30 to 90 min preincubation, added: substance P 10 nM	0.191 µM
CCC(NC(=O)C(CC(C)C)NC(=O)NCc1ccccc1)C(=O)C(=O)NCc1cccc(OC)c1 (centres unmarked)	Calpain-2 catalytic subunit (Capn2, Mus musculus, UniProt O08529)	enzyme activity, inhibitor	mouse pons-cerebellum membranes	added: calcium 2 mM	0.21 µM
CC[C@@]1(c2cccc(C(F)(F)F)c2)C2=C(Nc3n[nH]cc31)[C@H](F)C(C)(C)CC2=O (single isomer, unassigned)	Glycogen synthase kinase-3 alpha (GSK3A, Homo sapiens, UniProt P49840)	tau Thr231 phosphorylation, inhibitor, refers to: pThr231 over total tau	HEK293 expressing human tau, transfected with GSK3α		0.15 µM
Cc1nc(Nc2ncc(C(=O)Nc3c(C)cccc3Cl)s2)cc(N2CCN(CCOC(=O)[C@@H](N)CCCNC(=N)N)CC2)n1	ABL1				< 0.00045 µM
CC(C)CCn1c(OC2CCN(C(=O)C3CC3)CC2)nc2c1c(=O)n(C)c(=O)n2C	Aldehyde dehydrogenase X, mitochondrial (ALDH1B1, Homo sapiens, UniProt P30837)				> 57 µM
COc1ccc(C2=NN(C3CCCCCC3)C(=O)C3CC=CCC23)cc1OCCCCOc1ccc(-c2nnn[nH]2)cc1 (racemic)	cAMP phosphodiesterase B2 (Trypanosoma brucei, UniProt Q38F42)	enzyme activity, inhibitor			0.012 µM
C#Cc1cccc(Nc2ncnc3cc(OC)c(OCCCN4CCOCC4)cc23)c1	Insulin-like growth factor 1 receptor (IGF1R, Homo sapiens, UniProt P08069)	kinase activity, inhibitor		added: ATP 80.8 µM	> 10 µM

Repeated from above:
Structure (SMILES)	target	assay	test system	conditions	IC50
CC[C@@]1(c2cccc(C(F)(F)F)c2)C2=C(Nc3n[nH]cc31)[C@H](F)C(C)(C)CC2=O (single isomer, unassigned)	Glycogen synthase kinase-3 alpha (GSK3A, Homo sapiens, UniProt P49840)	tau Thr231 phosphorylation, inhibitor, refers to: pThr231 over total tau	HEK293 expressing human tau, transfected with GSK3α		0.15 µM
COc1ccc2nc3cc(Cl)ccc3c(NCCCCc3c(N)nc(N)nc3N)c2c1	Muscleblind-like protein 1, with (CUG)12 RNA (Homo sapiens, UniProt Q9NR56)	MBNL1-RNA binding, gel mobility shift		no tRNA, added: (CUG)12 RNA, 1000 nM MBNL1	37 ± 11 µM
C=CCn1c(NN)nc2cc3ccccc3cc2c1=O	Genome polyprotein, protease (Hepatitis C virus genotype 1b, UniProt O92972)	enzyme activity, inhibitor, FRET			16 µM
C=CC(=O)N1CCN(c2nc(OC[C@@H]3CCCN3C)nc3c2CCN(c2cccc4cccc(C)c24)C3)C[C@@H]1CC#N	GTPase KRas (KRAS, Homo sapiens, UniProt P01116)	target engagement in cells, BRET			~0.6 µM
